Published values collected from several papers.
Numbered parts are unrelated; each lists some results of a single study. Values joined by “and” are separate records of one study, mostly repeats; a detail may differ.

Study 1 — method: protein binding microarray; molecule type: double-stranded DNA, one strand shown; matrix: in vitro; concentration: not given; relative to: not given; reading: higher = stronger binding
Target: Histone acetyltransferase KAT6A, winged helix 1, GST fusion (KAT6A, Homo sapiens, UniProt Q92794, residues 1-85)
Notes: 8-mer, flanks averaged, mean of 2 arrays, mostly near background
Construct (chain): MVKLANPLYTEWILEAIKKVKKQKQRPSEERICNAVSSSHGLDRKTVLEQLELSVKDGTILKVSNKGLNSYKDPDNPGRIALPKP
Strand | E-score
ACAAGATC | -0.0481
AAAGTTCC | -0.0877
CTTTGAGA | -0.0778
GCGGTTGA | 0.233
CATAGCAG | -0.175
ACTCCGCT | 0.13
AGGACCCG | 0.217
CCTACGTC | -0.141

Study 2 — method: RNA Bind-n-Seq; molecule type: RNA; matrix: in vitro; concentration: not given; relative to: input RNA pool; reading: higher = stronger binding
Target: RING finger protein unkempt homolog, zinc fingers 1-6, GST-SBP tag (UNK, Homo sapiens, UniProt Q9C0B0, residues 30-357)
Notes: RNA with constant flanks, human and mouse sites, ends assumed
All sequences stand within: GGGAGUUCUACAGUCCGACGAUC … CAACAGAGGAUUGAGCAUCA
Residues (chain): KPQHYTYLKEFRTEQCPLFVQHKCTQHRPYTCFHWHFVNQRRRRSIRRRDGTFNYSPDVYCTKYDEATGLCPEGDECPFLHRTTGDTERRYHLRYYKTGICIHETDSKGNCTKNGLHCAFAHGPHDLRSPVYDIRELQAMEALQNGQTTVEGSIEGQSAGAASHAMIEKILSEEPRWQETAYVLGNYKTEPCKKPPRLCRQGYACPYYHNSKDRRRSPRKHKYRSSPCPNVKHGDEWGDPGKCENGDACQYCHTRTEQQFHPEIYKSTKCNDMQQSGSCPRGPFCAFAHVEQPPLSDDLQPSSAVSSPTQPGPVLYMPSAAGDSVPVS
Strand | bound/input enrichment [ratio]
GGCACCGUCCAAGUGACCUUAUUUAACCCCAACCAGACUGUGGUAAAGAUGUUCCUUGUGACCUUUGACUUCUCGGACAUGCCUGCUGCCCACAUGACCUUCCUGCGCCAUCGCCUCUUU | 0.224
GAGCUGCAGGAUAUGAUCAACGAAGUGGAUGCUGAUGGCAAUGGCACCAUUGACUUCCCAGAGUUCUUGACUAUGAUGGCUAGAAAAAUGAAAGACACAGAUAGCGAAGAAGAGAUCCGC | 0.264
GAAUAGGUUGGGUAUAACACCUGCAGUUUCCAGCUCUAUGAAACAGGAGAGAGAGAGAAAUAGCAGUUUGACUUGACUGUGGAAGAUGAUGGUUGCAUGCUUCUCAUUUGUACGUUUCCA | 0.257
AACAUUCAUUUCAUGAAAGCCUUCCAGAAAAUAGUGGUGCUUUUUUAUAAAGCUGAAGUCCUGAGCGAGGAGCCCAUUUUGAAGUGGUAUAAAGAUGCACAUGUUGCAAAGGGGAAGAGU | 0.382
GCUUCUUCUGCCAGUGCUGAAUUCUUCGCUGACAUUGCCCUGGCUCCUAUGGAAGCUGCUAAAGUUCGAAUUCAAACCCAGCCUGGUUAUGCCAACACCUUGAGGGAAGCUGUUCCCAAA | 0.0722
AAGACACUGACCCGGAACCACCUGUACUGUGAGCCCCCUGUGGAGCAGCCCCUGCCACAUCCCCAUGCCCUCCGAGAGGCUCCAGAUGCUUUGCCUGAGUUCACGGUACAGAUGGGCAAC | 0.199
GGAUCCAUUGCCUUGAAGAAAGUGAAAUUCCAAGCUAAGCUAGAACAUGAAUAUAUCCAGAACUUCAAAAUACUACAAGCAGGCUUCAAGAGGAUGGGCGUUGACAAAAUAAUUCCUGUG | 0.448
GGUGGGGUGGGCAUGGGGUGGGGGUAUGGGAACAGUUGGAGGAAUGGGAUAUCUGGGGAUAAUUUUAAAGGAUUACAUGUUAUGUAAAUUUUUAUGUGACUGACAUGGAGCCUGGAUGAC | 2.64

Study 3 — mode: inhibitor; concentration: 20 µM
Target: Replicase polyprotein 1ab, nsp13 helicase (rep, Severe acute respiratory syndrome coronavirus 2, UniProt P0DTD1)
SMILES | inhibition [%]
Fc1ccc(CNc2ncnc3ccc(F)cc23)cc1 | -1.45
N=C(N)c1ccc(N2CCN(C3CCN(CC(=O)O)CC3)CC2)cc1 | 3.57
Nc1ncc2c(n1)CC(c1ccco1)CC2=O (stereo not drawn) | 12.6
CCO[C@@H]1OC(=O)C[C@@H]1NC(=O)[C@@H]1CCCN1C(=O)[C@@H](NC(=O)c1ccc(N)c(Cl)c1)C(C)(C)C | 3.7
NCCc1cc(O)c(O)cc1O | 43.6
COc1cc(-c2ccc(=O)[nH]n2)ccc1OC(F)F | 6.52
O=C1[C@@H]2[C@H]3CC[C@H](C3)[C@@H]2C(=O)N1CCCCN1CCN(c2ncccn2)CC1 | 4.24
O=C1N(c2ccccc2)c2ccccc2C1(Cc1ccncc1)Cc1ccncc1 | 1.17
C[C@H]1N=C(N(C)C)N=C(N)N1 | 8.06
CNC(=O)c1cc2c(cn1)[nH]c1ccccc12 | 6.48
CN1CCC2=C(C1)C(c1ccccc1)c1ccccc12 (stereo not drawn) | 40.1
O=c1ccc2c(OCCCCOc3ccccc3)c3ccoc3cc2o1 | 4.54
S=C(NCCc1ccccn1)Nc1ccc(Br)cn1 | 8.82
COC(=O)[C@H](CC(C)C)NC(=O)[C@@H](N)CC(C)C | 7.09
Nc1nc(Cl)nc2c1ncn2[C@@H]1O[C@H](CO)[C@@H](O)[C@H]1O | 0.39
Cc1cc([C@@H](C)Nc2ccccc2C(=O)O)c2nc(N3CCOCC3)cc(=O)n2c1 | 14.1
O=C(O)c1cc2ccccc2s1 | 3.72
Cc1cc(C)c(Nc2ccnc(Nc3ccc(C#N)cc3)n2)c(C)c1 | 8.09
O=C(/C=C/c1ccccc1)NCCO | -4.88
O=C(NC(O)C(Cl)(Cl)Cl)NC(O)C(Cl)(Cl)Cl (stereo not drawn) | -2.1
Cn1cncc1[C@@](N)(c1ccc(Cl)cc1)c1ccc2c(c1)c(-c1cccc(Cl)c1)cc(=O)n2C | 6.83
CCC1(c2ccccc2)C(=O)NCNC1=O | 3.32
O=P(O)(O)CP(=O)(O)O | -5.2
C[C@@H]1O[C@@H](Oc2c(-c3cc(O)c(O)c(O)c3)oc3cc(O)cc(O)c3c2=O)[C@H](O)[C@H](O)[C@H]1O | -0.1
C[C@]12CC[C@@H](O)C[C@H]1CC[C@@H]1[C@@H]2CC[C@]2(C)C(=O)CC[C@@H]12 | 5.55

Study 4 — read-out: enzyme activity; mode: inhibitor; notes: without DTT
Target: Replicase polyprotein 1ab, main protease (rep, Severe acute respiratory syndrome coronavirus 2, UniProt P0DTD1)
Compound | IC50
Cc1cc(-c2ccc(/N=N/c3ccc4c(S(=O)(=O)O)cc(S(=O)(=O)O)c(N)c4c3O)c(C)c2)ccc1/N=N/c1ccc2c(S(=O)(=O)O)cc(S(=O)(=O)O)c(N)c2c1O | > 20000 nM and 9100 nM
COc1cccc(C(=O)CCN[C@@H](C)[C@H](O)c2ccccc2)c1 | 2400 nM
COCCCOc1ccnc(C[S+]([O-])c2nc3ccccc3[nH]2)c1C (stereo not drawn) | 740 nM
Cc1ccc(-n2sc(=O)n(Cc3ccc(F)cc3)c2=O)cc1 | 150 nM and 230 nM
O=[N+]([O-])C(Br)(CO)CO | 400 nM

Study 5 — cell line: HEK-293T/ACE2; concentration: 10 µM; time: 16 h; relative to: vehicle
SMILES | viability [%]
CN(C/C=C/C#CC(C)(C)C)Cc1cccc2ccccc12 | 97.1
C#Cc1cccc(Nc2ncnc3cc(OCCOC)c(OCCOC)cc23)c1 | 99.3
Cc1nc(-c2ccc(OCC(C)C)c(C#N)c2)sc1C(=O)O | 99.4
O=C1O[C@H](CO)[C@@H](O)[C@H](O)[C@H]1O | 103
COc1cc(C)c(/C=C/C(C)=C/C=C/C(C)=C/C(=O)O)c(C)c1C | 98.3

Some of these lines once more (study 2):
Strand | bound/input enrichment [ratio]
GAAUAGGUUGGGUAUAACACCUGCAGUUUCCAGCUCUAUGAAACAGGAGAGAGAGAGAAAUAGCAGUUUGACUUGACUGUGGAAGAUGAUGGUUGCAUGCUUCUCAUUUGUACGUUUCCA | 0.257
AACAUUCAUUUCAUGAAAGCCUUCCAGAAAAUAGUGGUGCUUUUUUAUAAAGCUGAAGUCCUGAGCGAGGAGCCCAUUUUGAAGUGGUAUAAAGAUGCACAUGUUGCAAAGGGGAAGAGU | 0.382
GCUUCUUCUGCCAGUGCUGAAUUCUUCGCUGACAUUGCCCUGGCUCCUAUGGAAGCUGCUAAAGUUCGAAUUCAAACCCAGCCUGGUUAUGCCAACACCUUGAGGGAAGCUGUUCCCAAA | 0.0722
AAGACACUGACCCGGAACCACCUGUACUGUGAGCCCCCUGUGGAGCAGCCCCUGCCACAUCCCCAUGCCCUCCGAGAGGCUCCAGAUGCUUUGCCUGAGUUCACGGUACAGAUGGGCAAC | 0.199
GGAUCCAUUGCCUUGAAGAAAGUGAAAUUCCAAGCUAAGCUAGAACAUGAAUAUAUCCAGAACUUCAAAAUACUACAAGCAGGCUUCAAGAGGAUGGGCGUUGACAAAAUAAUUCCUGUG | 0.448
GGUGGGGUGGGCAUGGGGUGGGGGUAUGGGAACAGUUGGAGGAAUGGGAUAUCUGGGGAUAAUUUUAAAGGAUUACAUGUUAUGUAAAUUUUUAUGUGACUGACAUGGAGCCUGGAUGAC | 2.64
